Published values collected from several papers.
Lines come from different studies, so protocols differ. ± marks the error that the study gave.
Ahr: Aryl hydrocarbon receptor (Ahr, Mus musculus, UniProt P30561)
UniProt P30561, sequence (whole entry, looked up): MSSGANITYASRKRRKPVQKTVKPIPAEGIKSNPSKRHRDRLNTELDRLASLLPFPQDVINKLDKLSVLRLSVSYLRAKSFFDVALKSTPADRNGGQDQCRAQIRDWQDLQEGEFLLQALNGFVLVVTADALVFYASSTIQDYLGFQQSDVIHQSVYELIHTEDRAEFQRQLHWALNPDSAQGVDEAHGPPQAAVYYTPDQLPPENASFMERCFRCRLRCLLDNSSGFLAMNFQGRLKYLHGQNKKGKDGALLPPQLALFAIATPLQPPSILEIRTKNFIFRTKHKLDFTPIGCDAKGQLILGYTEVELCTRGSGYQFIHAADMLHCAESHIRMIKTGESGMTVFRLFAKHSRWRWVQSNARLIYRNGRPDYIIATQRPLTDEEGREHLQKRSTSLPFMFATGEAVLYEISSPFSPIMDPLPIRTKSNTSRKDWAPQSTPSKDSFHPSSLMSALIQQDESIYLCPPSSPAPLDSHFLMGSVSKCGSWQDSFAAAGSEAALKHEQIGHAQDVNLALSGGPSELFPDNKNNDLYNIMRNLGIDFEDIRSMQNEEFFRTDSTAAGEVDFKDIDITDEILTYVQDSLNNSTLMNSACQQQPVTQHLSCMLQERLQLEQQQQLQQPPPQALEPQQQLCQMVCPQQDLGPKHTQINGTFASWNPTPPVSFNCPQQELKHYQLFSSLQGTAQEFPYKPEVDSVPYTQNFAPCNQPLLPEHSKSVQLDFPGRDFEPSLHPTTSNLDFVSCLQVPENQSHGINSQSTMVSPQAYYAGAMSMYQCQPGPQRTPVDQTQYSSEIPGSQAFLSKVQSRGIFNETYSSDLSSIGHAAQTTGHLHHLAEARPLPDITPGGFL
CYP2D6: Cytochrome P450 2D6 (CYP2D6, Homo sapiens, UniProt P10635)
UniProt P10635, sequence (whole entry, looked up): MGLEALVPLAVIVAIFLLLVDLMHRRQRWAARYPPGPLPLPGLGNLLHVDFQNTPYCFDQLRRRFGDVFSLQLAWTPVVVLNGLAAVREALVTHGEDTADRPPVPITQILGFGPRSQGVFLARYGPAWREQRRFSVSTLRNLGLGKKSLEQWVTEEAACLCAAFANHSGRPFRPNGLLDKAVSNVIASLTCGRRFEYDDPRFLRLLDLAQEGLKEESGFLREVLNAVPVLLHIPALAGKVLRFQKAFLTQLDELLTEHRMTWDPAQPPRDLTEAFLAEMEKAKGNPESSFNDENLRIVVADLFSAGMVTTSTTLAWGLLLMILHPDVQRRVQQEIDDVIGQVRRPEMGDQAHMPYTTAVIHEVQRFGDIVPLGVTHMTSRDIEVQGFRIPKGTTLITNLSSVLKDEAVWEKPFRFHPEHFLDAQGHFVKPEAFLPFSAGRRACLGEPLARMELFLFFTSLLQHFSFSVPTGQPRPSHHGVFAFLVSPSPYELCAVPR
CYP1B1: Cytochrome P450 1B1 (CYP1B1, Homo sapiens, UniProt Q16678)
UniProt Q16678, sequence (whole entry, looked up): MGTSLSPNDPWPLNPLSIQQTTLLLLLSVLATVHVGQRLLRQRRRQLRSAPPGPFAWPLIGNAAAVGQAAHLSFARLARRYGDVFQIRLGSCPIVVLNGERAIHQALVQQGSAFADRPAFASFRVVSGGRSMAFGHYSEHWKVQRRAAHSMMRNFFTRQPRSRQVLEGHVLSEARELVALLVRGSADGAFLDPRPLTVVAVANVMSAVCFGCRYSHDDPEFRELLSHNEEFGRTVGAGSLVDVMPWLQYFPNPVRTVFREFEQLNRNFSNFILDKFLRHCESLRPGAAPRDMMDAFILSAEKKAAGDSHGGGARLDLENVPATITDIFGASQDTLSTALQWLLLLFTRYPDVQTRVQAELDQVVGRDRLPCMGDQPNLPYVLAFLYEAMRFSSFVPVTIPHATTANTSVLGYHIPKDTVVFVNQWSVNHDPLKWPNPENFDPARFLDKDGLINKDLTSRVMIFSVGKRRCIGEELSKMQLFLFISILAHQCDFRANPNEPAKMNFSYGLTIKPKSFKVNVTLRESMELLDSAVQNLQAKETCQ
UniProt P20813, sequence (whole entry, looked up): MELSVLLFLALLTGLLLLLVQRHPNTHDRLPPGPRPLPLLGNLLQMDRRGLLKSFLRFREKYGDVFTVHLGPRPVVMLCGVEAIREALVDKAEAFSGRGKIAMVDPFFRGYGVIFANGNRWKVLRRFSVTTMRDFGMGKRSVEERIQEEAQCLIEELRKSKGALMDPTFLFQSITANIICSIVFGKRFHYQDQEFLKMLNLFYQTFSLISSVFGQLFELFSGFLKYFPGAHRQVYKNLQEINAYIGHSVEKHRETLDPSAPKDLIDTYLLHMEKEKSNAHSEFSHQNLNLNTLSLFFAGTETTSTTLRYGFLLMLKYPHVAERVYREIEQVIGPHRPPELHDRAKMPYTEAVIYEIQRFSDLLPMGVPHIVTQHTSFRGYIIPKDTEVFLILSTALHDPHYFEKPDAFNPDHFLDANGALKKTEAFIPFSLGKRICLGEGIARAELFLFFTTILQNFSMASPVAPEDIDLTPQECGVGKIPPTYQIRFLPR
UniProt P00747, sequence (whole entry, looked up): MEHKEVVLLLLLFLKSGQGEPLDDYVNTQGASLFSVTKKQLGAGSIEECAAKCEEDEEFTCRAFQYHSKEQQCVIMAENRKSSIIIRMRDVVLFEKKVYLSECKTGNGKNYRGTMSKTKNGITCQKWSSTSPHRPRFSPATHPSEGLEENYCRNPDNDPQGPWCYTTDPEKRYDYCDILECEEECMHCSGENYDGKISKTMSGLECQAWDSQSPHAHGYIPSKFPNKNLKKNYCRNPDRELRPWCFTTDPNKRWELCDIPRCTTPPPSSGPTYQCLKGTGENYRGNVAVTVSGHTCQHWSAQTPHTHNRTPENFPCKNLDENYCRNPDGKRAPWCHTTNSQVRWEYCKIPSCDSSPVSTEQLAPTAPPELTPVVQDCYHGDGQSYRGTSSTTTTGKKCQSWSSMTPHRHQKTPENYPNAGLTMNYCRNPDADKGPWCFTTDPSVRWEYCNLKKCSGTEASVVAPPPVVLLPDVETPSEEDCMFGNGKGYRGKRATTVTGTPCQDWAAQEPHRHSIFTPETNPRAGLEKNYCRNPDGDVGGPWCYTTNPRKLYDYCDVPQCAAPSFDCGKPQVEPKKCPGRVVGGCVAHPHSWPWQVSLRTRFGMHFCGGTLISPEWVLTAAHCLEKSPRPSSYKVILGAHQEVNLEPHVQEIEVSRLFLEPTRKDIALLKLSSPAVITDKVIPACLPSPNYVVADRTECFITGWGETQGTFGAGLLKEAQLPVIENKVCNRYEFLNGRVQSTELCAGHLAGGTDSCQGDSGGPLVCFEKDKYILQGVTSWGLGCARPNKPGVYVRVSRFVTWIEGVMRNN
UniProt P06873, sequence (whole entry, looked up): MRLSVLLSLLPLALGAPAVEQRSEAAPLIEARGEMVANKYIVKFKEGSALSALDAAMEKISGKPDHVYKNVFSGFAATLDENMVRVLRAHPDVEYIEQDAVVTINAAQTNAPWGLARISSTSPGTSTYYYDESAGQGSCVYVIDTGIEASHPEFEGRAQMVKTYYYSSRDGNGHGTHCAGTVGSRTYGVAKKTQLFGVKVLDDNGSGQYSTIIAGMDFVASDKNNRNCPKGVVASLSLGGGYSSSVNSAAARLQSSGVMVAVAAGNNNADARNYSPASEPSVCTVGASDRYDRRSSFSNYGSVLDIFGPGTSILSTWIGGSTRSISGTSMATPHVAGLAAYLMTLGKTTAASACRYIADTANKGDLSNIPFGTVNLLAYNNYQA
UniProt P35869, sequence (whole entry, looked up): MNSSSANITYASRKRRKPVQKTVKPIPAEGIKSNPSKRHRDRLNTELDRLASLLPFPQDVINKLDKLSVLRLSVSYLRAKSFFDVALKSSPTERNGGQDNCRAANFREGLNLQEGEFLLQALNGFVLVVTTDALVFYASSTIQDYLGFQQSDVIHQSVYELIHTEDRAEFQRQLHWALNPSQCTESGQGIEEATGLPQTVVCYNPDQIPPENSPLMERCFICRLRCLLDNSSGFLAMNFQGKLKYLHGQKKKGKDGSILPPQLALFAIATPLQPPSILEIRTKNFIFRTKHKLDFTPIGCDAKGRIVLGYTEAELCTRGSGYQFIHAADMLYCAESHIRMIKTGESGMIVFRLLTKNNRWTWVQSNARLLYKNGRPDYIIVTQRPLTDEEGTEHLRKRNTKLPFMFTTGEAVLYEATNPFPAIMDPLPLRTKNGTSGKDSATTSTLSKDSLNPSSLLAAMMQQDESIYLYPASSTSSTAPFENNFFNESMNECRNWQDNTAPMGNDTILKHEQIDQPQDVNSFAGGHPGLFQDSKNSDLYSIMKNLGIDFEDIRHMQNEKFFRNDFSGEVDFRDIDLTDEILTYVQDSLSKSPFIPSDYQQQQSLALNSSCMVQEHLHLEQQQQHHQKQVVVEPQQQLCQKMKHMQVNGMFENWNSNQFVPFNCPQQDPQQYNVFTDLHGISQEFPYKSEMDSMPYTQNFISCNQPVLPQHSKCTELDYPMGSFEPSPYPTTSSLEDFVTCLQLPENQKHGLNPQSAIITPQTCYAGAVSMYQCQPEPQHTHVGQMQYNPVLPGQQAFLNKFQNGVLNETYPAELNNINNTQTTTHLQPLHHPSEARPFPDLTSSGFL
UniProt P11308, sequence (whole entry, looked up): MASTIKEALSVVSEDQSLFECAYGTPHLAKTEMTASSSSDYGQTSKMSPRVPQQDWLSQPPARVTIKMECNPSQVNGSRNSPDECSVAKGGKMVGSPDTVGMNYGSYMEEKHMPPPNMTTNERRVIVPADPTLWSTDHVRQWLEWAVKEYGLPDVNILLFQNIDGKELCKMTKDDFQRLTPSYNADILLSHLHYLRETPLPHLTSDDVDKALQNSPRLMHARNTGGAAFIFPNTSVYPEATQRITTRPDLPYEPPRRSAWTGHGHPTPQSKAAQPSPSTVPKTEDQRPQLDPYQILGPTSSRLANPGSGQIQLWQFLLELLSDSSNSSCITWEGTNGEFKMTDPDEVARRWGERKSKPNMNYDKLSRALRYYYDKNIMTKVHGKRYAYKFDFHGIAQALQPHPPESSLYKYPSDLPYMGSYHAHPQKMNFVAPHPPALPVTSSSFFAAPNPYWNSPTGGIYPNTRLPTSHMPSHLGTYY

Substance	target or system	test	system	conditions	how to read	endpoint	value
COCCOCCOc1ccnc(C2=N[C@@](C)(C(=O)[O-])CS2)c1O.[Na+]	Fe(III)	Job's plot	–	pH 7.4, total 1.0 mM	–	Job's plot maximum mole fraction	0.677
Clc1ccc(-c2cc(Cl)c(Cl)c(Cl)c2Cl)cc1	Ahr	reporter gene, agonist	Hepa-1c1c7	24 h	–	EC50	0.796 ± 0.661 µM
CC(C)C[C@H](NC(=O)[C@H](Cc1ccc(O)cc1)NC(=O)[C@@H]1CCCN1C(=O)[C@@H]1CCCN1C(=O)[C@@H](N)CC(C)C)C(=O)N[C@@H](Cc1ccccc1)C(=O)N[C@H](C(=O)O)[C@@H](C)O	ERG (Homo sapiens, UniProt P11308)	immunofluorescence	VCaP	1 µM, 6 h	–	nuclear co-localization	78 ± 5%
CCC[S+]([O-])c1ccc2[nH]c(NC(=O)OC)nc2c1 (stereo not shown)	CYP2D6	inhibitor	human liver microsomes	10 µM, pH 7.4, with: dextromethorphan	–	inhibition	< 0%
O=C1Nc2ccc(Cl)cc2[C@@](C#CC2CC2)(C(F)(F)F)O1	Cytochrome P450 2B6 (CYP2B6, Homo sapiens, UniProt P20813)	–	healthy human, plasma	oral, 50 mg, with: midazolam 2 mg, no ritlecitinib	–	Cmax	300 ng/mL
CN[C@@](C)(C[18F])C(=O)O	DU-145 tumour model	–	host not given, pancreas	1 h, tumour-bearing	–	tracer uptake	28 %ID/g
Oc1cc(O)cc(/C=C/c2ccc(O)c(O)c2)c1	UGT1A9 human	4'-O-glucuronide formation, substrate	–	pH 7.4	–	Km	15.1 ± 2.7 µM
O=c1c(O[C@@H]2O[C@H](CO)[C@@H](O)[C@H](O)[C@H]2O)c(-c2ccc(O)c(O)c2)oc2cc(O)cc(O)c12	SLC5A1 (Homo sapiens, UniProt P13866)	–	Caco-2 BBe1, SLC5A1 siRNA knockdown	50 µM, 4 h	relative to: scrambled siRNA over knockdown	transport rate reduction	1.92 fold
C#CCOc1ccccc1-c1ccccc1	CYP1B1	reverse type I spectral binding	–	pH 7.4	–	Kd	114 ± 16 µM
O=C1Cc2cc(CCN3CCN(c4nsc5ccccc45)CC3)c(Cl)cc2N1	CYP2D6	inhibitor	human liver microsomes	2 µM, pH 7.4, with: dextromethorphan	–	inhibition	< 0%
CCCC[C@@H]1NC(=O)[C@H](C(C)C)NC(=O)[C@H](Cc2c[nH]cn2)NC(=O)[C@H]([C@@H](C)CC)NC(=O)[C@H](CC(=O)O)NC(=O)[C@@H](NC(=O)C[C@H](CC(N)=O)NC(=O)[C@@H]2CCCN2C(=O)C[C@H](CCC(=O)O)NC(=O)[C@@H](N)C(C)C)CSSC[C@@H](C(=O)N[C@@H](Cc2ccccc2)C(=O)N[C@H]2CNC[C@@H]2C(=O)N[C@@H](CCCNC(=N)N)C(=O)N[C@H](CC(N)=O)CC(C)C)NC(=O)[C@H](CCC(=O)O)NC(=O)[C@H](Cc2c[nH]c3ccccc23)NC(=O)C[C@H](CCC(=O)O)NC(=O)C[C@H](Cc2c[nH]c3ccccc23)NC1=O	Proteinase K (PROK, Engyodontium album, UniProt P06873)	proteolytic stability	TBS	50 µM, pH 7.5, 5% DMSO, with: proteinase K 10 µg/mL	–	half-life	5 h
CCCCCCCC[N+](CCCCCCCC)(CCCCCCCC)CCCCCCCC	KCNH2 (Homo sapiens, UniProt Q12809)	thallium influx, inhibitor, confirmation	hERG-transduced cells	–	–	IC50	0.26 ± 0.1 µM
C#CCOc1ccc(-c2ccc(OCC#C)cc2)cc1	CYP1B1	reverse type I spectral binding	–	pH 7.4	–	Kd	23 ± 4.3 µM
CC(C)C=Cc1c(O)cc(/C=C/c2ccc(O)c(O)c2)cc1O	UGT1A9 human	4'-O-glucuronide formation, substrate	–	pH 7.4	–	Km	188 µM
CCCSc1ccc2nc(NC(=O)OC)[nH]c2c1	CYP2D6	inhibitor	human liver microsomes	2 µM, pH 7.4, with: dextromethorphan	–	inhibition	< 0%
Clc1ccc(-c2ccc(Cl)c(Cl)c2)cc1Cl	Ahr	binding, competitor	–	in vitro expressed receptor, with: [3H]TCDD	–	Ki	0.094 µM
OC[C@@H](O)c1ccccc1	Cytochrome P450 2E1 (CYP2E1, Homo sapiens, UniProt P05181)	enzyme activity, inhibitor	human liver microsomes	concentration not given, at high concentration	–	residual activity	11%
CSc1nc2cc(Cl)c(Oc3cccc(Cl)c3Cl)cc2[nH]1	Cytochrome P450 1A2 (CYP1A2, Homo sapiens, UniProt P05177)	inhibitor	human liver microsomes	10 µM, pH 7.4, with: phenacetin	–	inhibition	86.1%
CC[N+]1=C(C=CC=CC=C2N(CCCCCC(=O)NCCN3C(=O)CC(SC[C@@H](NC(=O)[C@@H](CCCNC(=N)N)NC(=O)[C@@H](CCCNC(=N)N)NC(=O)[C@@H](CCCNC(=N)N)NC(=O)[C@@H](CCCNC(=N)N)NC(=O)[C@@H](CCCNC(=N)N)NC(=O)[C@@H](CCCNC(=N)N)NC(=O)[C@@H](CCCNC(=N)N)NC(=O)[C@@H](CCCNC(=N)N)NC(=O)[C@@H](CCCNC(=N)N)NC(=O)[C@H](CC(C)C)NC(=O)[C@H](CCCCN)NC(=O)[C@H](CC(C)C)NC(=O)[C@H](CCC(N)=O)NC(=O)[C@H](CC(C)C)NC(=O)[C@H](CCCNC(=N)N)NC(=O)CCCCCNC(=O)[C@@H](CCC(=O)O)NC(=O)[C@@H](CCC(=O)O)NC(=O)[C@@H](CCC(=O)O)NC(=O)[C@@H](CCC(=O)O)NC(=O)[C@@H](CCC(=O)O)NC(=O)[C@@H](CCC(=O)O)NC(=O)[C@@H](CCC(=O)O)NC(=O)[C@@H](CCC(=O)O)NC(=O)[C@H](N)CCC(=O)O)C(N)=O)C3=O)c3ccc(S(=O)(=O)O)cc3C2(C)C)C(C)(C)c2cc(S(=O)(=O)[O-])ccc21 (stereo partly shown)	Plasminogen (PLG, Homo sapiens, UniProt P00747)	substrate	–	5 µM, 2 h	–	cleavage	77.9 ± 2.1%
O=S(=O)(O)Oc1cc(Cl)c(-c2cc(Cl)ccc2Cl)cc1Cl	sulfatase, human liver microsomes	substrate	–	pH 7.4, 37 °C	–	Km	3.4 ± 0.4 µM
O=C(c1c[nH]c2ccccc12)c1nccc2c1[nH]c1ccccc12	Ahr	reporter gene, activator	H1L7.5c3 (mouse)	6 h	–	EC50	0.0076 µM
Clc1ccc(-c2ccc(Cl)c(Cl)c2Cl)c(Cl)c1Cl	Ahr	binding, competitor	–	in vitro expressed receptor, with: [3H]TCDD	–	Ki	1.42 µM
Oc1ccc(/C=C/c2cc(O)cc(O)c2)cc1	UGT1A1 human	4'-O-glucuronide formation, substrate	–	pH 7.4	–	Km	25.3 ± 4.8 µM
C#CCOCc1ccccc1-c1ccccc1	CYP1B1	reverse type I spectral binding	–	pH 7.4	–	Kd	146 ± 15 µM
indolo[3,2-b]carbazole	AHR (Homo sapiens, UniProt P35869)	–	–	–	–	EC50	0.0006 µM

Repeated from above:
Substance	target or system	test	system	conditions	how to read	endpoint	value
Oc1cc(O)cc(/C=C/c2ccc(O)c(O)c2)c1	UGT1A9 human	4'-O-glucuronide formation, substrate	–	pH 7.4	–	Km	15.1 ± 2.7 µM
O=c1c(O[C@@H]2O[C@H](CO)[C@@H](O)[C@H](O)[C@H]2O)c(-c2ccc(O)c(O)c2)oc2cc(O)cc(O)c12	SLC5A1 (Homo sapiens, UniProt P13866)	–	Caco-2 BBe1, SLC5A1 siRNA knockdown	50 µM, 4 h	relative to: scrambled siRNA over knockdown	transport rate reduction	1.92 fold
C#CCOc1ccccc1-c1ccccc1	CYP1B1	reverse type I spectral binding	–	pH 7.4	–	Kd	114 ± 16 µM
